Published values collected from several papers.
A part holds a random share of what one study measured. Positions count from the first letter of the parent shown.

Block 1 — method: protein binding microarray; molecule type: double-stranded DNA, one strand shown; sample: in vitro; tested at: not given; baseline: not given; direction: higher = stronger binding; measurement: E-score
Target: Histone acetyltransferase KAT6A, winged helix 2, GST fusion (KAT6A, Homo sapiens, UniProt Q92794, residues 85-181)
Setting: 8-mer, flanks averaged, mean of 2 arrays, mostly near background
Construct (chain): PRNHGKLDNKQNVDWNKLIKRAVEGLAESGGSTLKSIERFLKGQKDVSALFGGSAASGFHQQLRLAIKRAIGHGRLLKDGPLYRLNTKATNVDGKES
ATAACGAT: -0.261
CGTAGGTA: -0.0406
ACTAGCAT: -0.0326
CGGATGGC: 0.197
CGGCGACG: 0.208
CCGATATA: -0.119
ATGGGACA: -0.168
ACCTCGTG: 0.0744
CGACTCAG: -0.0421
CTCCTCGA: -0.0632
GGTCGTGA: 0.0471
ATCCCTTA: -0.0742
TCAATCAA: 0.0154
AGCACCCG: 0.0841
GCTAAATA: 0.0745
GATACTAA: 0.0188
GGAAGTAC: -0.124
ACACGTCA: -0.214
AGCCATTA: 0.0278

Block 2 — method: DHFR PCA, deep sequencing; sample: yeast; added: (+)-ABA 0 µM; baseline: wild-type fitted maximum; direction: higher = stronger binding; measurement: relative binding score
Target: ABI1, truncated, D143A, DHFR fusion (Arabidopsis thaliana)
Setting: methotrexate growth selection, single substitutions
Parent: PYL1, truncated, DHFR fusion (Arabidopsis thaliana); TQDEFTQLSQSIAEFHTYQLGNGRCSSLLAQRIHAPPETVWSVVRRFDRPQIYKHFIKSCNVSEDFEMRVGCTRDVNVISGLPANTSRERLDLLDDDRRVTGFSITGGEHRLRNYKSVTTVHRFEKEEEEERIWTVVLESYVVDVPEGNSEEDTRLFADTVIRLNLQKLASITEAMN; partner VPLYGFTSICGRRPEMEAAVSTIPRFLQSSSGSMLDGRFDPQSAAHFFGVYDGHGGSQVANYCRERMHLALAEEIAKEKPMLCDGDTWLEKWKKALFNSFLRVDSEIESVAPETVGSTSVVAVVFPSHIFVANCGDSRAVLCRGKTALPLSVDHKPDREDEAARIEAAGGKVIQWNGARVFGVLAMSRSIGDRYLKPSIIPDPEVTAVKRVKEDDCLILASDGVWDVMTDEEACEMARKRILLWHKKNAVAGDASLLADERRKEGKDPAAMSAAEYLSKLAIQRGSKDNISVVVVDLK
N61D: 30.8%
L164Q: 4.38%
A175E: 22.6%
I172T: 4.03%
F66P: 1.29%
D65M: 7.86%
T1A: 21.3%
F103N: -2.3%
E64D: 37.6%
E67C: 15.3%
R90E: 1.42%
H122S: -4.49%
K116S: 13.7%
P146H: -3.35%
R74T: -3.34%
D159R: -10.3%
V143W: -8.22%

Block 3 — method: RNA Bind-n-Seq; molecule type: RNA; sample: in vitro; tested at: 365 nM; baseline: no-protein control; direction: higher = stronger binding; measurement: RBNS enrichment (R)
Target: RNA binding protein fox-1 homolog 2, RRM domain, GST-SBP tag (RBFOX2, Homo sapiens, UniProt O43251-10, residues 100-194)
Setting: natural RNA segment, single round, ends assumed
Construct (chain): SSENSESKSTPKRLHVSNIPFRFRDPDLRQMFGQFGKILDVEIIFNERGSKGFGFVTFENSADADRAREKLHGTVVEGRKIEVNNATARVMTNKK
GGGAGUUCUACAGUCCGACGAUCCUCCCGAGAGGAACCAGCCCGGUAAGAGGGCACACGCUGAUGCGGCUUCCCGGUCCCUCCGCGUGUGCCGAUUCCAGAUGACCUUCCAGUGUCCCCAAGGUUCUUCCAUCUGGAAUUCUCGGGUGCCAA: 0.213
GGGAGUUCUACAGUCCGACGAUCCGCACGGUCACAUGAUCACUUCACUUCUCGAUGGCUAUUGCAGACCAAGACUGCAGUCAAGAAGGGAGGGUGAGCCUCACGAUCUUGGGUCUCAGGGCCUGACAUAGGGGUGGAAUUCUCGGGUGCCAA: 0.391
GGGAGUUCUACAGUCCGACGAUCCCUGGGCAUACGCCGCCUCCAGCUGCUCAUAACCACCGAUCUGGUUGAAAGCUGGAGGGUGGGGCAGAGUGGGUUGGUUCUGGGUGGUCCUGACUCCCAGGAUCCUCCUAUGGAAUUCUCGGGUGCCAA: 0.254
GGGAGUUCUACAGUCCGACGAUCUUUACACACCCCAGCUCCCGUUAAAUUCUCCUGUGACUGCUAACAAACCCAUGUCUGCUUUCAGACAUCCCAGGGUGUUUCUCUCGAACAUGCCAUCUGGUGCCAAAUGAUGGAAUUCUCGGGUGCCAA: 0.797
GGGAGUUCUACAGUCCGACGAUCGGUGAGGAAGGGCAUCUUCCUGACUCCUCUGCCCAGUGCUGGAAGGAGCAUGCCUGGGUUAGUGGGCCAGGGGCCAGGCAGCUGGGGGCCUUUGGGGACCAGAAGGGGAGUGGAAUUCUCGGGUGCCAA: 3.48
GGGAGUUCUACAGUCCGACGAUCGUCAGCUAGGCCAAUAGGAACAGACCGGGACCUUGUCUCACACUGAUGAUACCUCACAUGUUGACCGGCUAUGUGAACUGCCUAUUUCCUAUGCUGGAGUUUUGAUUUUUUGGAAUUCUCGGGUGCCAA: 0.634
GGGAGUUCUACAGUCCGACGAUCUGAUGCCCAUGGGAGGUGGCAUUUGCUUUGGGCAGAGCAGCCUACAGGAAACAUUUCUCUUGUAAUUUAAGAAAGUUAAGUCUAUAAACCAGCAUCAAGUGAUGUCUAGCUGGAAUUCUCGGGUGCCAA: 0.553
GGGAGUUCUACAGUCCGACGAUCUUAAAAUCUAAUUCAAACUAAUAGAAUUAAUGGAAUAUGUAAAUAGAAACGUGUAUAUUUUUUAUGAAACAUUACAGUUAGAGAUUUUUAAAUAAAGAAUUUUAAAACUCUGGAAUUCUCGGGUGCCAA: 0.662

Block 4 — method: protein-binding microarray; molecule type: double-stranded DNA, one strand shown; sample: in vitro; tested at: 2540 nM top; setting: 60-bp whole probe; added: salmon DNA 0.4 mg/ml; baseline: random background probes; direction: higher = stronger binding; measurement: fitted relative affinity; shared flanks, not repeated: GCCTAGCAC … GTCTTGATTCGCTTGACGCTGCTG
Target: Interferon regulatory factor 3, full length, phosphomimetic (IRF3, Homo sapiens, UniProt Q14653, residues 1-427, S386D/S396D/S398D/S402D/T404D/S405D)
Residues (chain): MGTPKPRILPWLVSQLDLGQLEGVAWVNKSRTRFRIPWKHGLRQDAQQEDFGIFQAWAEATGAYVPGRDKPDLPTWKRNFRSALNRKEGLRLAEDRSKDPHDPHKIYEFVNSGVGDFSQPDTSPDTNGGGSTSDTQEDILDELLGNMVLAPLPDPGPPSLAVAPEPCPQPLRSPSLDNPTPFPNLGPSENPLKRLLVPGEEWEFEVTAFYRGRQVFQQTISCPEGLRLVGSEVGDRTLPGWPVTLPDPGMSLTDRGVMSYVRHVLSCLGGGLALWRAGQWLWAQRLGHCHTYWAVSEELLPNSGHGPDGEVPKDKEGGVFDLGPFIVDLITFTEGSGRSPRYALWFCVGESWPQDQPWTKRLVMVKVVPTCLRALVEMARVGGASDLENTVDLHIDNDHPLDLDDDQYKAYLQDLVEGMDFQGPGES
GACGGTCTCGCTCTCGGGACGTGCTAG: 0.57 z-score
TTAGGTCTCCTTCACCTTTAGTGCTAG: 0.595 z-score
AACCATTTTGGTTTTCCTTAGTGCTAG: 2.7 z-score
GGGTGGGAGCCGAAGACGCCGTGCTAG: -0.834 z-score
GACTGTATCGGGACTGGGGACGTGCTA: 1.67 z-score
TCACTTTTATGCTCTTTCACTGTGCTA: 1.26 z-score
GACGGACTGGGGTGTCGGGACGTGCTA: -0.517 z-score
GACCAACTGGGGACTGGAGACGTGCTA: -0.367 z-score
GACGGCATCGACTATCGGGACGTGCTA: -0.825 z-score
GACGGTATCGGGTTTCCGGACGTGCTA: 3.31 z-score
GACGGTTTCCTACTCCTGACGTGCTAG: 6.62 z-score
TTAGGACTGGACACTGGGTTGGTGCTA: -0.95 z-score
GTTTCTTTTCTTTTCTTTTTGTGCTAG: 7.05 z-score
GACGGACTGGGGTATCGGGACGTGCTA: -0.484 z-score
GACGATTTCAGTTTCCAGACGTGCTAG: 5.6 z-score
TTAGGACTGGGGTATGGGTTAGTGCTA: -1.08 z-score
TAGAATGTCCTTTCTCCATGGGTGCTA: 4.78 z-score
CCAAGGTTCAAGTTTACCCATGTGCTA: 0.11 z-score
TAAGAACTGAGTTTCGATTAGTGCTAG: 2.56 z-score

Block 5 — method: RNA Bind-n-Seq; molecule type: RNA; sample: in vitro; tested at: 20 nM; setting: 6-mer, flanks averaged, single round; added: 150 mM KCl; baseline: input library; direction: higher = stronger binding; measurement: 6-mer enrichment (R)
Target: TAR DNA-binding protein 43, full length, His tag (TARDBP, Homo sapiens, UniProt Q13148, residues 1-414)
GUUAGG: 1.5
ACACCC: 0.755
GGGGAC: 4.12
UAGCUU: 0.587
GGGUGA: 3.55
CAGGUU: 0.743
UAUGCU: 0.669
CGGAUU: 0.715
UAAGCU: 0.599
CGGAAU: 0.814
CAUCUA: 0.553
ACAGGC: 0.92
UACAAC: 0.618
GGGCAU: 2.08
CCACCA: 0.669
CACAGA: 0.707

Repeated from above (block 2):
V143W: -8.22%
T1A: 21.3%
K116S: 13.7%
N61D: 30.8%
F66P: 1.29%
R90E: 1.42%
P146H: -3.35%
L164Q: 4.38%
H122S: -4.49%
